Results gathered from unrelated publications.
Each line is one published result; not all experiments were run side by side.
Organism: Pseudomonas aeruginosa

O=C(O)c1cn(C2CC2)c2cc(N3CCNCC3)c(F)cc2c1=O has an inhibition of 99.2% (microbial growth; ATCC10145; 50 µg/mL, 24 h).
O=c1cc(-c2ccc(O)c(O)c2)oc2cc(O)cc(O)c12 gave an inhibition of greater than 50% (microbial growth; ATCC15692 PAO1; 11.1 µM).
The susceptible isolates of CC1(C)S[C@@H]2[C@H](NC(=O)[C@H](N)c3ccc(O)cc3)C(=O)N2[C@H]1C(=O)O is reported as 0% (hospitalized pneumonia patients, clinical isolates; Fine score 70 or more).
CC[C@H]1OC(=O)[C@H](C)[C@@H](O[C@H]2C[C@@](C)(OC)[C@@H](O)[C@H](C)O2)[C@H](C)[C@@H](O[C@@H]2O[C@H](C)C[C@H](N(C)C)[C@H]2O)[C@](C)(OC)C[C@@H](C)C(=O)[C@H](C)[C@@H](O)[C@]1(C)O has an FIC index of 1.5 (checkerboard broth microdilution; clinical isolate 17-99; added: magainin II).
`ILPWKWPWWPWRR` gave an MBIC of greater than 32 µg/mL (biofilm formation; peptide, PAO1; 24 h, 37 °C).
CCN1CCN(C(=O)N[C@@H](C(=O)N[C@@H]2C(=O)N3[C@@H]2SC(C)(C)[C@@H]3C(=O)O)c2ccccc2)C(=O)C1=O gave an FIC index of 0.187 (checkerboard broth microdilution; clinical isolate 8-97; added: magainin II).
With NC(=S)n1nc(-c2ccccc2)cc1O the MBC was greater than 1000 µg/mL (broth microdilution, agar subculture; ATCC 25619; 24 h).
CO/N=C(\C(=O)N[C@@H]1C(=O)N2C(C(=O)O)=C(CSc3nc(=O)c(=O)[nH]n3C)CS[C@H]12)c1csc(N)n1 has an FIC index of 1.25 (checkerboard broth microdilution; clinical isolate 17-99; added: ranalexin).
O=C(Nc1ccc(F)cc1)c1ccccc1O has an MIC of greater than 64 µg/mL (microbial growth, broth dilution; ATCC27853).
CCOC(=O)CSc1nnc(C23CC4CC(CC(C4)C2)C3)n1-c1ccccc1 — result for “inhibition zone diameter”: less than 10 mm (IFO 3448; 200 µg/disc, 24 h, 37 °C).
For CC(C)(O/N=C(\C(=O)N[C@@H]1C(=O)N2C(C(=O)[O-])=C(C[n+]3ccccc3)CS[C@H]12)c1csc(N)n1)C(=O)O, the FIC index was 1 (checkerboard broth microdilution; clinical isolate 17-99; added: ranalexin).
For O=C(Nc1ccccc1F)c1ccccc1O, the MIC was greater than 64 µg/mL (microbial growth, broth dilution; ATCC27853).
CC[C@@H](C)[C@@H](NC(=O)[C@@H](C)NC(=O)[C@@H](CCCNC(=N)N)NC(=O)[C@@H](Cc1c[nH]c2ccccc12)NC(=O)[C@@H](CCC(N)=O)NC(=O)[C@H](N)C(C)C)C(=O)N[C@H](CCCNC(=N)N)C(=O)N[C@@H](C(=O)N[C@H](CCCNC(=N)N)C(=O)N[C@@H](C(=O)N[C@@H](C(=O)N[C@H](CCCNC(=N)N)C(N)=O)[C@H](C)CC)C(C)C)C(C)C: “concentration abolishing (p)ppGpp accumulation” 1 µg/mL (added: serine hydroxamate 500 µM).
CC(=O)N[C@@H](C)C(=O)N[C@@H](CCC(N)=O)C(=O)N[C@@H](CCCCN)C(=O)N[C@@H](CC(C)C)C(=O)N[C@@H](CC(C)C)C(=O)N[C@@H](CCCCN)C(=O)N[C@@H](CCCCN)C(=O)N[C@@H](Cc1ccccc1)C(=O)N[C@@H](CO)C(=O)N[C@@H](CC(C)C)C(=O)N[C@@H](CC(C)C)C(=O)N[C@@H](CCCCN)C(=O)N1CCC[C@H]1C(=O)N[C@@H](Cc1c[nH]c2ccccc12)C(=O)N[C@@H](C)C(=O)O has an inhibition of 47% (Fe2+ uptake; PA14, iron-depleted; 10 µM, 45 min pretreatment, 35 °C, added: FeSO4 100 µM, 15 min).

Excerpt of the above:
O=C(O)c1cn(C2CC2)c2cc(N3CCNCC3)c(F)cc2c1=O has an inhibition of 99.2% (microbial growth; ATCC10145; 50 µg/mL, 24 h).
